Experimental data collected from several papers.

| Compound | assay | test system | conditions | scale | measurement | value |
| --- | --- | --- | --- | --- | --- | --- |
| C=CC(=O)N1CCC([C@@H]2CCNc3c(C(N)=O)c(-c4ccc(Oc5ccccc5)cc4)nn32)CC1 | – | healthy human volunteers | oral, dose not given | – | TEAE constipation | 4.7% |
| CC(C)c1nc(N(C)S(C)(=O)=O)nc(-c2ccc(F)cc2)c1/C=C/[C@@H](O)C[C@@H](O)CC(=O)O | – | healthy human volunteers | oral, 10 mg, 6 days, monotherapy | relative to: subjects | TEAE discontinuation incidence | 0% |
| C[C@@H](c1nc(-c2ccc(C#N)cc2)cs1)[C@](O)(Cn1cncn1)c1cc(F)ccc1F | item: general and administration site disorders | healthy human | oral, 200 mg, 13 days, study | – | TEAE incidence | 11.1% |
| O=C(COc1ccc(Cl)cc1)NC12CC(c3nnc([C@H]4C[C@@H](OC(F)(F)F)C4)o3)(C1)C2 | – | humans | 200 mg once daily | – | TEAE leading to discontinuation | 14.3% |
| Cc1cc(C)c(CNC(=O)c2cc(Cl)c3c(c2C)O[C@@](C)([C@H]2CC[C@H](N(C)C)CC2)O3)c(=O)[nH]1 | CTCAE v4.0 | human, relapsed/refractory NHL | oral, 200 mg once daily, onset after cycle 1 day 1 | – | TEAE with dose interruption | 62.5 % patients |
| CCO | – | human | concentration not given | – | TEAE of CTCAE grade ≥3 | 0% |
| CN1C(=O)[C@@H](NC(=O)c2nnc(Cc3ccccc3)[nH]2)COc2cccnc21 | phase I single ascending dose | human, male and female | oral, 800 mg, fasted | – | TEAE leading to permanent discontinuation | 0% |
| C[C@H](O)C(=O)C1=Nc2c(nc(N)[nH]c2=O)NC1 | – | healthy human volunteers | oral, 20 mg/kg, 4 days, monotherapy | relative to: subjects | TEAE discontinuation incidence | 0% |
| CCCn1cc(C)c2c(=O)[nH]c(-c3cc(S(=O)(=O)N4CCN(CC)CC4)ccc3OCC)nc21 | – | human | concentration not given | – | TEAE leading to withdrawal | 0% |

Some of these lines once more:
| Compound | assay | test system | conditions | scale | measurement | value |
| --- | --- | --- | --- | --- | --- | --- |
| C=CC(=O)N1CCC([C@@H]2CCNc3c(C(N)=O)c(-c4ccc(Oc5ccccc5)cc4)nn32)CC1 | – | healthy human volunteers | oral, dose not given | – | TEAE constipation | 4.7% |
| CN1C(=O)[C@@H](NC(=O)c2nnc(Cc3ccccc3)[nH]2)COc2cccnc21 | phase I single ascending dose | human, male and female | oral, 800 mg, fasted | – | TEAE leading to permanent discontinuation | 0% |
